Measurements from different studies.
Numbered parts are unrelated; each lists some results of a single study. Positions count from the first letter of the parent shown.

Block 1
Target: Ras GTPase-activating protein-binding protein 1, full length (G3BP1, Homo sapiens, UniProt Q13283)
UniProt Q13283, sequence (whole entry, looked up): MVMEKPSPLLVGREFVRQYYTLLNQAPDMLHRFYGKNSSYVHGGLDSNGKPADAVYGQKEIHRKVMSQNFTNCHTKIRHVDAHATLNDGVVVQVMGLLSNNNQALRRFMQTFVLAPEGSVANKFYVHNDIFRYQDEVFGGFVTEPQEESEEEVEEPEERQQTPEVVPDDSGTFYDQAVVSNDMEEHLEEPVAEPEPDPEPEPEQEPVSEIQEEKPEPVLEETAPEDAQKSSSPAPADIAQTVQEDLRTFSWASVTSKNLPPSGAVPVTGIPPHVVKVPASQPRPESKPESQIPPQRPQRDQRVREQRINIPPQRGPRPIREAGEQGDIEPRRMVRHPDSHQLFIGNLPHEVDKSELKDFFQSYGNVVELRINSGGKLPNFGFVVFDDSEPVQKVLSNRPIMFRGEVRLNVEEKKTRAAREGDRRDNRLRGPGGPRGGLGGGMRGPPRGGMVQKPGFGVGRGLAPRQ
Method: RNA Bind-n-Seq
Form: RNA
Sample: in vitro
Concentration: 200 nM
Setting: whole 134-nt RNA, ends assumed
Together with: 150 mM KCl
Reference: input library
Direction: higher = stronger binding
Measurement: log2 enrichment
All sequences stand within: GGGAGUUCUACAGUCCGACGAUC … UGGAAUUCUCGGGUGUCAAGG
UGCAUCUGCACUGGAGAAAUGGAAGACAGCAAUCCGGGAAGCUCAGACUUUCUCCAGGAUGCACGUGCUGCUUGGGAUGCUUGAUGCCUG: -0.368
GCAGGAAGUAAAAACAAAUGGAAAUGCUUCGGAUAGUGGCAGGGGUGGGGGUUGCUAAGGAAAGGGUGGGAUGGGCGUGGGUAAAGAGUU: 1.03
AAGUCCUGUGCUACACAUCGUAUGUACCGAAUCGGGGAAAGGGGAAAGGGGAAAGGAAAGUAUUAUGUUACGCCGUUCGGAUCUGCACUU: -0.107
UGUGCUACACAUCGUAUGUACCGAAUCGGGGUUUUUUUGGGGUUUUUUUGGGUUUUUUUGGGGAAAGUAUUAUGUUACGCCGUUCGGAUC: -0.592
AGUCCUGUGCUACACAUCGUAUGUACCGAAUCGGGGUGGGGAGGGGAAAAAAAGGGGAAAGUAUUAUGUUACGCCGUUCGGAUCUGCACU: 0.431
UGUGCUACACAUCGUAUGUACCGAAUCGGGGAAAAAAAGGAAAAAAAGGGGAAAAAAAGGGGAAAGUAUUAUGUUACGCCGUUCGGAUCU: -0.504
UCAAGUCCUGUGCUACACAUCGUAUGUACCGAAUCGGUUUUUUUGGUUUGGAGGAAAGUAUUAUGUUACGCCGUUCGGAUCUGCACUUCC: -0.998
UCCUGUGCUACACAUCGUAUGUACCGAAUCGGGGCCCCCGGGGCCCCCGGCCCCCGGGGAAAGUAUUAUGUUACGCCGUUCGGAUCUGCA: -0.33
CUGUGCUACACAUCGUAUGUACCGAAUCGGUUUUUUUGGGUUUUUUUGGGUUUUUUUGGGGAAAGUAUUAUGUUACGCCGUUCGGAUCUG: -1.05

Block 2
Target: ATF7, bZIP domain (human)
Method: DHFR protein complementation
Sample: yeast
Setting: single substitutions, most at no-binding floor
Reference: wild-type JUN-FOS pair
Direction: higher = stronger binding
Measurement: binding fitness
Starting sequence: JUN, bZIP domain (human); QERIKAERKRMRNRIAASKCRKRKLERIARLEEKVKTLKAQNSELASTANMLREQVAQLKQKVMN; partner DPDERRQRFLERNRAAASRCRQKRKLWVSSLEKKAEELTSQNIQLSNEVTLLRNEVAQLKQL
I28L: -0.992 natural log
V56E: -1.45 natural log
L31Q: -1.38 natural log
A40W: -1.23 natural log
A29Q: -0.982 natural log
R30E: -0.559 natural log
S47N: -0.727 natural log
A57P: -1.38 natural log
A49F: -1.45 natural log
L38F: -1.5 natural log
S43G: -1.05 natural log
K39A: -1.02 natural log
A40P: -1.43 natural log
A29I: -0.936 natural log
L38H: -1.47 natural log
E32N: -1.4 natural log
L52I: -1.48 natural log
K34V: -1.12 natural log
N42H: -1.12 natural log
E32Y: -1.19 natural log

Block 3
Target: CCNA1, cyclin fold, Cln2 fusion (human)
Method: yeast growth competition, sequencing
Sample: yeast
Setting: strong parent motif
Reference: not given
Direction: higher = stronger binding
Measurement: normalised enrichment score
Starting sequence: RBL2 docking peptide (human); STTRRRLFVENDS; partner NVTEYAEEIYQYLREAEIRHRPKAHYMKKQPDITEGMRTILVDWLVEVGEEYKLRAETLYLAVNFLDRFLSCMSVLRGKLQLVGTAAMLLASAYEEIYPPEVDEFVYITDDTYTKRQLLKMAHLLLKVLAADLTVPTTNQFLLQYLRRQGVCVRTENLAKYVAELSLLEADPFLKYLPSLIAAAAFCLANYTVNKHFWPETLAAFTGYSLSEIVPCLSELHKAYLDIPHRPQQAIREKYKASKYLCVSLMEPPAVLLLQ
S13K: 0.715
T3I: 0.498
R5N: 0.306
T3F: 0.368
R4M: 0.0975
R5H: 0.458
S1E: 0.108
F8N: 0.0801
S1K: 0.777
V9S: 0.486
R4A: 0.763
T3G: 0.562
T2Y: 0.572
T2D: 0.153
L7C: 0.465
T2N: 0.543
S1C: 0.82
E10Q: 0.306
R6Y: 0.131
T3Q: 0.17
R5K: 0.655
T3K: 0.0807
R4K: 0.366
R6W: 0.217

Block 4
Target: ABI1, truncated, D143A, DHFR fusion (Arabidopsis thaliana)
Method: DHFR PCA, deep sequencing
Sample: yeast
Setting: methotrexate growth selection, single substitutions
Together with: (+)-ABA 0 µM
Reference: wild-type fitted maximum
Direction: higher = stronger binding
Measurement: relative binding score
Starting sequence: PYL1, truncated, DHFR fusion (Arabidopsis thaliana); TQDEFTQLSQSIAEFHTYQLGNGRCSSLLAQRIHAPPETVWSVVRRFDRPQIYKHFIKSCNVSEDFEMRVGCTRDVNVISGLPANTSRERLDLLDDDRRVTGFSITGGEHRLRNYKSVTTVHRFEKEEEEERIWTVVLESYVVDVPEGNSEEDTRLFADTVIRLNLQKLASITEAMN
R24Q: 63.1%
T106R: -0.568%
T154S: -9%
M176K: 3.59%
G108Q: 2.47%
R46W: -2.03%
T160L: 4.24%
G23D: 7.13%
Q31C: -1.62%
Q167H: 8.72%
R46F: -6.86%
F56K: -0.174%
I133K: 17.6%
R32T: 35.3%
I162D: 9.4%

Repeated from above (block 4):
T154S: -9%
R46F: -6.86%
I162D: 9.4%
G108Q: 2.47%
Q167H: 8.72%
T160L: 4.24%
R32T: 35.3%
M176K: 3.59%
R24Q: 63.1%
G23D: 7.13%
F56K: -0.174%
